Assay results collected from several papers.
Every numbered part comes from another study and shows a few of its results, in no order.
Chain of UniProt Q5XXA6 (whole entry, unmodified, looked up): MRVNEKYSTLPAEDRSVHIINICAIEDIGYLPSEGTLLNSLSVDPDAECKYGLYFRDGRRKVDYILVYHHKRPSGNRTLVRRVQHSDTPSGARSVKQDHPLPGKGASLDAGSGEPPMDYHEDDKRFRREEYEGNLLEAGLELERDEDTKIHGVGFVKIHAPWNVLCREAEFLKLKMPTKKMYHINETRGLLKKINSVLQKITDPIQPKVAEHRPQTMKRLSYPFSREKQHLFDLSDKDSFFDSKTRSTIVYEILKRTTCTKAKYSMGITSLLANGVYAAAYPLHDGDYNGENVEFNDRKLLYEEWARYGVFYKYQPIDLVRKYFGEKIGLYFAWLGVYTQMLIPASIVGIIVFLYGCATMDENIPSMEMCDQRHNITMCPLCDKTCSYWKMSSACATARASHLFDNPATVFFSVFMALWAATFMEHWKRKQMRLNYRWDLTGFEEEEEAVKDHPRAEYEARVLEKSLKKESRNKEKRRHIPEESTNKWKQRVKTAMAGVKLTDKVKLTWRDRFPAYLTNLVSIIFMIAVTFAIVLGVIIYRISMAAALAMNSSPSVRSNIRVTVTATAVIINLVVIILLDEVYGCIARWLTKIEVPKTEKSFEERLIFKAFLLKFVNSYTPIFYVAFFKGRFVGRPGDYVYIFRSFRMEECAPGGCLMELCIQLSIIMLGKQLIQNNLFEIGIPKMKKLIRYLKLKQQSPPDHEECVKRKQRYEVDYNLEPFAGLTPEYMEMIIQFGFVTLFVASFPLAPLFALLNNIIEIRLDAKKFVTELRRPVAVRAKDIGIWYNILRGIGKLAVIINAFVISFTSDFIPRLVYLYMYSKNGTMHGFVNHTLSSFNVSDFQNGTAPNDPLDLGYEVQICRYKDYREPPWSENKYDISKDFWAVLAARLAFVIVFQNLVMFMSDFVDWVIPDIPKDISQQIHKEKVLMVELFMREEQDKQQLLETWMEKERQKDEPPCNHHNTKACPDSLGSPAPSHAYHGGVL
Chain of UniProt Q9NRP7 (whole entry, looked up): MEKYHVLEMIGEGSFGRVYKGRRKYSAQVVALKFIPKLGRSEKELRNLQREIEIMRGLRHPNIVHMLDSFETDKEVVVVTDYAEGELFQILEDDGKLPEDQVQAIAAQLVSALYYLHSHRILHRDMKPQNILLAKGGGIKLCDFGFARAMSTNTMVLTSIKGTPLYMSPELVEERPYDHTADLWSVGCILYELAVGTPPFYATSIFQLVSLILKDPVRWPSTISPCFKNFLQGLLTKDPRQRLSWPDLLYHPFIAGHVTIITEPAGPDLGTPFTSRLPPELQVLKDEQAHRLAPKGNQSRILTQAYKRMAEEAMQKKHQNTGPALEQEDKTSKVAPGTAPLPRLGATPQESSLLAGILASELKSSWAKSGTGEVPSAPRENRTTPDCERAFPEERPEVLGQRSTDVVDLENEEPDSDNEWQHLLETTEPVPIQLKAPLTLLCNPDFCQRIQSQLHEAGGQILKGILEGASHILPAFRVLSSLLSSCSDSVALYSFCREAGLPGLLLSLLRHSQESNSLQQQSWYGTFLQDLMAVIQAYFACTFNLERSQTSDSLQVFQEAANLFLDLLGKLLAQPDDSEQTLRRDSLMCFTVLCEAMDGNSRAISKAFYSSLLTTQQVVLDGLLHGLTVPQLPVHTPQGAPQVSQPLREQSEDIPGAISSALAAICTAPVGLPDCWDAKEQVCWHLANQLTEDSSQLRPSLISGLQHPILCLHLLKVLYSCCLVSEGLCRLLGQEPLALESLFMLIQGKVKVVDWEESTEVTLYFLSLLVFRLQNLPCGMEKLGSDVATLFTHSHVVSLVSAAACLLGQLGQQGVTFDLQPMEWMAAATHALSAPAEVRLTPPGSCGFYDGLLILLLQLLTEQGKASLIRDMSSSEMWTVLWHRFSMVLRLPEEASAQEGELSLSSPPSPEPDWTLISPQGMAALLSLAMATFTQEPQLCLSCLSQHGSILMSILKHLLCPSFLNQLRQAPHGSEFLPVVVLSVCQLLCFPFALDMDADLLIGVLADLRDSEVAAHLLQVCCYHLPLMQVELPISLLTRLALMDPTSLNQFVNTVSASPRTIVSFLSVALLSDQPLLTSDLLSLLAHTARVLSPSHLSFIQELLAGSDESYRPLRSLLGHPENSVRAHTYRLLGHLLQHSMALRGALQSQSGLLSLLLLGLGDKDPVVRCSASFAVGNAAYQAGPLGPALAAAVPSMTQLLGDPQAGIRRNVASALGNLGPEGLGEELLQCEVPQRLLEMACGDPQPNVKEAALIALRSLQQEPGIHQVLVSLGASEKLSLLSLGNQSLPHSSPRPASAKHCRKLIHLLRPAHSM
Chain of UniProt Q9H0K1 (whole entry, looked up): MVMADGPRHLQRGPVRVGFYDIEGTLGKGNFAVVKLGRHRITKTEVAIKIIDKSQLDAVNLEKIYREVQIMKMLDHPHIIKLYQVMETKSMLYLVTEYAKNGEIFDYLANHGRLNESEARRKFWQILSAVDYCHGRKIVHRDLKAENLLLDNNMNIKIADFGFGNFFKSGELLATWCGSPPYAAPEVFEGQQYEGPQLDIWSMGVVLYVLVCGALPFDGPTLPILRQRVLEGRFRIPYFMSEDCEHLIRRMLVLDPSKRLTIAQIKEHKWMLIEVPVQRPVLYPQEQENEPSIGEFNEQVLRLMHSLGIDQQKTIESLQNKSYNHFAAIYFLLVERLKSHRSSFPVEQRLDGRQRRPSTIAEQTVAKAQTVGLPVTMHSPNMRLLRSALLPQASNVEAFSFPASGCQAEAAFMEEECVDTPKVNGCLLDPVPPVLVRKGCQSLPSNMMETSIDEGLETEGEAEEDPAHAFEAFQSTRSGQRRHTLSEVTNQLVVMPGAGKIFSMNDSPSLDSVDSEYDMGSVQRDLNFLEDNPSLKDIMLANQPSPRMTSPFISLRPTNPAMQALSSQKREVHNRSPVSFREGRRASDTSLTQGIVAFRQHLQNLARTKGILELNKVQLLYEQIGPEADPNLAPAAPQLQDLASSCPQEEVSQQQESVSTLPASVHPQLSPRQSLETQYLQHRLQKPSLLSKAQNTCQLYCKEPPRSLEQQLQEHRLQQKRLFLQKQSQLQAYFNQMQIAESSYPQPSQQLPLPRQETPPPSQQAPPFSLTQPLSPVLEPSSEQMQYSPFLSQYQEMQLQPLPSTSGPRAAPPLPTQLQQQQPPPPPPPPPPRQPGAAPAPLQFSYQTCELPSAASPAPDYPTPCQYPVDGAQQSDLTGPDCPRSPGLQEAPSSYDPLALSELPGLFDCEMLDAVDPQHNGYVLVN

Sample 1
Target: Ribosomal protein S6 kinase alpha-1 (RPS6KA1, Homo sapiens, UniProt Q15418)
Chain of UniProt Q15418 (whole entry, looked up): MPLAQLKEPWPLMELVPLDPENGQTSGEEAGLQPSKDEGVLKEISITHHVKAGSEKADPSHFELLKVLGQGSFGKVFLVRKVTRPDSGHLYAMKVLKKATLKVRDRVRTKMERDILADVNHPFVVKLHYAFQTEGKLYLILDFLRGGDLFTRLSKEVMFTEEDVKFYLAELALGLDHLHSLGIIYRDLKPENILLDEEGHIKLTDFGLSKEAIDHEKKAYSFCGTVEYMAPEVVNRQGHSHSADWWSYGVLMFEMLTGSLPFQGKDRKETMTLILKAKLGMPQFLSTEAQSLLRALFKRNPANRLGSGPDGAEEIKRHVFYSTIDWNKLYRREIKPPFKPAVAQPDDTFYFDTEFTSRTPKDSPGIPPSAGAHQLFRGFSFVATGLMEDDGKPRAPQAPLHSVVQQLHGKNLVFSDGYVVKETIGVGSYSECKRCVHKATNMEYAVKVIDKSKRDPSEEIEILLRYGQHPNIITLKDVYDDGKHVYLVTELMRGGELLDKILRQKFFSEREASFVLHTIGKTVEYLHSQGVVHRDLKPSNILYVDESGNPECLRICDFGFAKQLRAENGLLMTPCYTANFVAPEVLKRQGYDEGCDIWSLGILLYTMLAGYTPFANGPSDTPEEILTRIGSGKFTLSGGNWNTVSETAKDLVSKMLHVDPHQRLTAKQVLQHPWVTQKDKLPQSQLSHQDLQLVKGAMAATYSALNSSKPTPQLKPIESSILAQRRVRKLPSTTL
Observed: enzyme activity
Mode: inhibitor
Concentration: 0.5 µM
Reference: control
Compound	remaining activity
N#CC(=C(N)Sc1ccc(N)cc1)c1ccccc1C(F)(F)F	88.7%
Nc1ncnc2c1cnn2-c1ccccc1	79.5%
Fc1ccc(-c2nc3n(c2-c2ccncc2)CCS3)cc1	100%
COc1cc(Nc2c(C#N)cnc3cc(OCCCN4CCN(C)CC4)c(OC)cc23)c(Cl)cc1Cl	80.4%
CC(C)(C)n1nc(Cc2cccc3ccccc23)c2c(N)ncnc21	87.8%
NC(=O)c1ccc(N(C(N)=O)c2c(F)cccc2F)nc1-c1ccc(F)cc1F	109%
Oc1ccc(Nc2nc(-c3ccc(Cl)cc3)cs2)cc1	97.7%
O=S(=O)(NCCNC/C=C/c1ccc(Br)cc1)c1cccc2cnccc12	68.4%
O=C1NC(=O)C(c2c[nH]c3ccccc23)=C1c1c[nH]c2ccccc12	57.6%
O=C1Cc2c([nH]c3ccc([N+](=O)[O-])cc23)-c2ccccc2N1	89.7%
CCc1[nH]c(-c2ccc(OC)cc2)nc1-c1ccncc1	106%
CC(=O)c1ccc(N2CCOCC2)cc1O	92.4%
Cc1cncc2cccc(S(=O)(=O)N3CCCN(C(=O)CN)C[C@@H]3C)c12	90.4%
CSc1nc(-c2ccnc(N[C@@H](C)c3ccccc3)c2)c(-c2ccc(F)cc2)[nH]1 (racemic)	99.4%
Cc1cc(Nc2nc(-c3ccccc3)nc3ccccc23)n[nH]1	58%
CC[n+]1c(/C=C/N(C)c2ccccc2)n(-c2ccccc2)c2ccc(-c3nc4ccccc4s3)cc21	104%
CC#CC(=O)Nc1cc2c(Nc3ccc(F)c(Cl)c3)ncnc2cn1	95.1%
CCCC(=O)Oc1ccc2[nH]c(C(=O)c3cc4ccccc4[nH]3)cc2c1	91.3%

Sample 2
Structure (SMILES): COc1ccc(-c2c(Nc3ccccn3)[nH]c3c(C4=CCCCC4)c(-c4ccccc4)nn3c2=O)cc1
Medium: plasma
Route: oral
assay	test system	conditions	plasma concentration, mean
	cancer patients	50 mg, 6 h post-dose, single dose	400 ng/mL
	cancer patients	100 mg, 8 h post-dose, single dose	1000 ng/mL
LC-MS/MS	human	50 mg once daily, 4 h, cycle 1	1540 ng/mL
	cancer patients	200 mg, 24 h post-dose, single dose	1050 ng/mL
	cancer patients	200 mg, 72 h post-dose, single dose	462 ng/mL
	cancer patients	50 mg, 72 h post-dose, single dose	36.4 ng/mL
	cancer patients	400 mg, 48 h post-dose, single dose	265 ng/mL
	cancer patients	400 mg, 0.5 h post-dose, single dose	134 ng/mL

Sample 3
Structure (SMILES): O=C(O)[C@H]1[C@H](Cn2nnc3ccccc3c2=O)CC[C@@H]1C(=O)c1ccc(OCCC2CCOCC2)cc1
Observed: cell-free assay
Method: competition with immobilised ligand
Concentration: 1 µM
target	remaining binding [%]
Serine/threonine-protein kinase 36 (STK36, Homo sapiens, UniProt Q9NRP7)	100
Receptor-type tyrosine-protein kinase FLT3 (FLT3, Homo sapiens, UniProt P36888, ITD)	83
Serine/threonine-protein kinase SIK2 (SIK2, Homo sapiens, UniProt Q9H0K1)	100
Atypical kinase COQ8B, mitochondrial (COQ8B, Homo sapiens, UniProt Q96D53)	87
Epidermal growth factor receptor (EGFR, Homo sapiens, UniProt P00533, L858R/T790M)	64
Hepatocyte growth factor receptor (MET, Homo sapiens, UniProt P08581, M1250T)	100

Sample 4
Structure (SMILES): C=CCc1ccc(O)c(-c2cc(CC=C)ccc2O)c1
Observed: chloride current
Method: whole-cell voltage clamp
target	assay	conditions	IC50 [µM]
Anoctamin-1 (ANO1, Homo sapiens, UniProt Q5XXA6, del476-501/E649K)	inhibitor	E623K mutant at 80 mV	124
Anoctamin-1 (ANO1, Homo sapiens, UniProt Q5XXA6, del476-501/M544I)	inhibitor	60 mV holding voltage	210
Anoctamin-1 (ANO1, Homo sapiens, UniProt Q5XXA6, del476-501/M544T)	inhibitor	80 mV holding voltage	28
Anoctamin-1 (ANO1, Homo sapiens, UniProt Q5XXA6, del476-501)		membrane voltage 40 mV, together with: 300 nM Ca2+	19.6
Anoctamin-1 (ANO1, Homo sapiens, UniProt Q5XXA6, del476-501/R541K)	inhibitor	R515K mutant at -60 mV	18.9
Anoctamin-1 (ANO1, Homo sapiens, UniProt Q5XXA6, del476-501/F646A)		membrane voltage 40 mV	20.3
Anoctamin-1 (ANO1, Homo sapiens, UniProt Q5XXA6, del476-501/E650A)		membrane voltage -40 mV	18.7
Anoctamin-1 (ANO1, Homo sapiens, UniProt Q5XXA6, del476-501/E649D)	inhibitor	E623D mutant at 40 mV	33.5

For quick reference, copied from above (sample 2):
assay	test system	conditions	plasma concentration, mean
	cancer patients	50 mg, 6 h post-dose, single dose	400 ng/mL
	cancer patients	100 mg, 8 h post-dose, single dose	1000 ng/mL
LC-MS/MS	human	50 mg once daily, 4 h, cycle 1	1540 ng/mL
	cancer patients	200 mg, 24 h post-dose, single dose	1050 ng/mL
	cancer patients	200 mg, 72 h post-dose, single dose	462 ng/mL
